Measured values from different studies.
A part holds a random share of what one study measured. Values joined by “and” are separate records of one study, mostly repeats; a detail may differ.
Chain of UniProt P49759 (whole entry, looked up): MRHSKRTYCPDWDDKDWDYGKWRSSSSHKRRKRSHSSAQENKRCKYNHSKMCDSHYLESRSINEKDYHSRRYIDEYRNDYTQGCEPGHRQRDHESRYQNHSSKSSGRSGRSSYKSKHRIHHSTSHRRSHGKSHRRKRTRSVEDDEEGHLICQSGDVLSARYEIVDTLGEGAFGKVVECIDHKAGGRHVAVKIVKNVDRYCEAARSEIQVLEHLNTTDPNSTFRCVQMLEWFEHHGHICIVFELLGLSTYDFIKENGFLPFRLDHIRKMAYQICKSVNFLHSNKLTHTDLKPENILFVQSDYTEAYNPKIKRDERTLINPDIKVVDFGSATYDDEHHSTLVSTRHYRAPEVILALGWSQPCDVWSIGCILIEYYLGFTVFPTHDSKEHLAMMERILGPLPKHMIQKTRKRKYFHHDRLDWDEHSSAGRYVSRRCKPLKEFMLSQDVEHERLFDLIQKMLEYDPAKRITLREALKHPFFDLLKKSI
Chain of UniProt P51451 (whole entry, looked up): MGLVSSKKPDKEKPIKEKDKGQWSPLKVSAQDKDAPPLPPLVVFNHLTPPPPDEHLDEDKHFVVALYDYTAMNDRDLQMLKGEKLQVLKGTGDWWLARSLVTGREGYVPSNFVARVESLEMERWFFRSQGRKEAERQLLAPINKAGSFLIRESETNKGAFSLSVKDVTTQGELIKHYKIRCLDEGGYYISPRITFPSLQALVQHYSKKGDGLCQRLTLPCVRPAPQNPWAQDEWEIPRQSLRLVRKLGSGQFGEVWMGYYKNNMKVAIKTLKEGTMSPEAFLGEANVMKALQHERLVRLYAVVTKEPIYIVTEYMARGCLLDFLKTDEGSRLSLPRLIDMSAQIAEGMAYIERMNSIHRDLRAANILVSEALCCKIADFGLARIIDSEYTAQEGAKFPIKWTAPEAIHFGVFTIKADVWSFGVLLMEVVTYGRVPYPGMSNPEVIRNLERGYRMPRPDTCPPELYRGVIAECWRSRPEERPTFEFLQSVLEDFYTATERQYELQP
Chain of UniProt P42338 (whole entry, looked up): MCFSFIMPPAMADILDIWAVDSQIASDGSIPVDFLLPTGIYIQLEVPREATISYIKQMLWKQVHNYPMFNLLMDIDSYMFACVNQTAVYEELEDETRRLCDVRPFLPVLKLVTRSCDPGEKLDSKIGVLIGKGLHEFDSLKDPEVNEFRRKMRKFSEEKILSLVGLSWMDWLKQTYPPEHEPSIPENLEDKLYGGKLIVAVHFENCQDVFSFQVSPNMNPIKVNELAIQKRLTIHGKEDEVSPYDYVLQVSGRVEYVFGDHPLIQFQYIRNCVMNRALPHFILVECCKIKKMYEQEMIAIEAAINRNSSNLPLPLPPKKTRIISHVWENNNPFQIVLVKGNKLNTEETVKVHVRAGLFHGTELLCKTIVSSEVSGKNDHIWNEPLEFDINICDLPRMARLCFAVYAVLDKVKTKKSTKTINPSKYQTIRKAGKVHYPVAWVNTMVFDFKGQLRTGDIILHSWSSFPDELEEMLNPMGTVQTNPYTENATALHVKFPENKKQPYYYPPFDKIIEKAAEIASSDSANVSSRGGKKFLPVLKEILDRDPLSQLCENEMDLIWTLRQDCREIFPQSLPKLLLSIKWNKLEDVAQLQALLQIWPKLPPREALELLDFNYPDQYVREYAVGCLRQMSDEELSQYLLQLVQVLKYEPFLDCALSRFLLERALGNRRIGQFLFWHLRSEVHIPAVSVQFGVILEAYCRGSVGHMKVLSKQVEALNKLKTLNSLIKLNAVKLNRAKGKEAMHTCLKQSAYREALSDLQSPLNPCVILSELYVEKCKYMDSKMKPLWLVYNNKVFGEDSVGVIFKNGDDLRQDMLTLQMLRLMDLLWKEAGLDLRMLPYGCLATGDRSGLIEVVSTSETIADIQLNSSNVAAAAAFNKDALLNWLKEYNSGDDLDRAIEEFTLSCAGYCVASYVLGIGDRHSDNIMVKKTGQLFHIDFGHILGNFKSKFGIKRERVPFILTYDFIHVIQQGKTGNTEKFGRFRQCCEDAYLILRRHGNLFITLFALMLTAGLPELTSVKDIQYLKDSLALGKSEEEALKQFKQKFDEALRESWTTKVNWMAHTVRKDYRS
Chain of UniProt P07949 (whole entry, unmodified, looked up): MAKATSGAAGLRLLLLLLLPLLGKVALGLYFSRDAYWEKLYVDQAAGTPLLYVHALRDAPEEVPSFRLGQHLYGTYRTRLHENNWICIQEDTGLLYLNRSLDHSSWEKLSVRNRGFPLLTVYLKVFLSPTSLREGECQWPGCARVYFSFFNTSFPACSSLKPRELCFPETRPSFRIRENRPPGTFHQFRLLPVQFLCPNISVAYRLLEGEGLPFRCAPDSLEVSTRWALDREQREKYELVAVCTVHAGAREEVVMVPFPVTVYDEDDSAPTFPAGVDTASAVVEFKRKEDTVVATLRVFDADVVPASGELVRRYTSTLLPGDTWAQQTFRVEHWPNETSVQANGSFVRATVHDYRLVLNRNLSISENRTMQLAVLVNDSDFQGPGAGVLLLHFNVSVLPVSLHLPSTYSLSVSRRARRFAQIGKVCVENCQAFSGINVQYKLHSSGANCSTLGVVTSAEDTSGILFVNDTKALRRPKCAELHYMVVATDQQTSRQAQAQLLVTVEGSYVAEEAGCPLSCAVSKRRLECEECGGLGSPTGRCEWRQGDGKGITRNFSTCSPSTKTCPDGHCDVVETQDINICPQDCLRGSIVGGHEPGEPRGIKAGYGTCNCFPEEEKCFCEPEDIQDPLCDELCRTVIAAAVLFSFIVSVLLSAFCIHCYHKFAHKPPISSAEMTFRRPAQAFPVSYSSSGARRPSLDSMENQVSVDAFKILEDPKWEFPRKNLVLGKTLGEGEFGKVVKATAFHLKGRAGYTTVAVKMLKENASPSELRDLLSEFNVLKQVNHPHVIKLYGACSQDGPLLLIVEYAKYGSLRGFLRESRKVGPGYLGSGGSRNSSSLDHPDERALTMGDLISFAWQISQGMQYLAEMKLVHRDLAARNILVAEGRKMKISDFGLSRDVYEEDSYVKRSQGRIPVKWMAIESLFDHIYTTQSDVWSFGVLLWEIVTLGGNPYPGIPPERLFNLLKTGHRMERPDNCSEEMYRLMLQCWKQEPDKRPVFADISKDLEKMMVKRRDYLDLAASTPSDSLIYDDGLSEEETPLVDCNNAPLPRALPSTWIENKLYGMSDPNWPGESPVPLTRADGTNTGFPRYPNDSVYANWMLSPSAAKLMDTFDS
Chain of UniProt P07333 (whole entry, looked up): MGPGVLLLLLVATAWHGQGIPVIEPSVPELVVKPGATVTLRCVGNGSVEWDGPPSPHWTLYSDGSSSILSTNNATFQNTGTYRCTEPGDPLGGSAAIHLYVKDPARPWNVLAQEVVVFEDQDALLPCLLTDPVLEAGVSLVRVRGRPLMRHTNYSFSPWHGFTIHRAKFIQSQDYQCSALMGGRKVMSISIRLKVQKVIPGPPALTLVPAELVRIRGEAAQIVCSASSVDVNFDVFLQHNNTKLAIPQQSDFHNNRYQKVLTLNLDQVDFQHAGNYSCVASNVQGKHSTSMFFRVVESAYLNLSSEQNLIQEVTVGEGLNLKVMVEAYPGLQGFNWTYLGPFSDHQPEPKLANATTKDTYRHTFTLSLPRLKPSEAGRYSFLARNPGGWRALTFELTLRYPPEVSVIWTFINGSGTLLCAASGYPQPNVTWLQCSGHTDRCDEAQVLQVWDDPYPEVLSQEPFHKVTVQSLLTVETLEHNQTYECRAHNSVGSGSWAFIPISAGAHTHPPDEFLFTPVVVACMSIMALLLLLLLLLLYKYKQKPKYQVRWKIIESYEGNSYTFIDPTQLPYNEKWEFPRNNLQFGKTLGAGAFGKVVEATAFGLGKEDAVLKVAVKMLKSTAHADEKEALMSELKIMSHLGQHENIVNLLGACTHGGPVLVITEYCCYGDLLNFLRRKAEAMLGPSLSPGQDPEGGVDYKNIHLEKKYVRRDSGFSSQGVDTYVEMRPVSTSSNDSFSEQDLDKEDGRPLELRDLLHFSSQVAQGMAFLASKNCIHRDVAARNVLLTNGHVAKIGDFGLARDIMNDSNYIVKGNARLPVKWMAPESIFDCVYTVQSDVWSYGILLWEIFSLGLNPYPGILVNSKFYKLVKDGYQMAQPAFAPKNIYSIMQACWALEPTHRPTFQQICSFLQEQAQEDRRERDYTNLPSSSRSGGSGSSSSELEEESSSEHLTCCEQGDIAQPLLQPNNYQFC
Chain of UniProt Q15831 (whole entry, looked up): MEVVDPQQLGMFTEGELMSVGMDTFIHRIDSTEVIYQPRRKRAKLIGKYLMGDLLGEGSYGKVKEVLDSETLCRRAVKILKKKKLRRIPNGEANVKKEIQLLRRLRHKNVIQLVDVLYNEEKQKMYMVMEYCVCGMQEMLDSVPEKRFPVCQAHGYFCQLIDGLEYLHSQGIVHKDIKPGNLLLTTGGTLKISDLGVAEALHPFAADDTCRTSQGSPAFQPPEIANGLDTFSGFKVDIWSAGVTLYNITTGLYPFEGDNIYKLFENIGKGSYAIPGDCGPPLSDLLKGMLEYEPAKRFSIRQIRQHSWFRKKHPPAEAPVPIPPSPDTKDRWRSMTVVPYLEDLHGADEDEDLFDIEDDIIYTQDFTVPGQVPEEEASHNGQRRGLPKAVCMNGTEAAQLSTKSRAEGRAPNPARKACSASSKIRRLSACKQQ
Chain of UniProt P61075 (whole entry, looked up): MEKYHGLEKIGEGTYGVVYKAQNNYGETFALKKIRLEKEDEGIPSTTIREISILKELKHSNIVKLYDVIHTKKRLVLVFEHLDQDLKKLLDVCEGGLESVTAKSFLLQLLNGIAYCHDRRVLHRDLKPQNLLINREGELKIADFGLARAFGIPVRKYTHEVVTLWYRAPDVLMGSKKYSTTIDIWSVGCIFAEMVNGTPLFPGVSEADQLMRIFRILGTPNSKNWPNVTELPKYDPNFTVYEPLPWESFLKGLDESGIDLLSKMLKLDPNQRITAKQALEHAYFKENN

Sample 1
Cell line: MDA-MB-231
Effect on: cell viability
Method: CellCounting-Lite
Concentration: 0.9145 nM
Temperature: 37 °C
Reading: higher = more viable cells
Cn1cc(-n2cnc3c(NCc4nc5cc(Cl)c(Cl)cc5[nH]4)nc(N4CCNCC4)nc32)cn1 gave a luminescence signal of 489000 a.u. and 471000 a.u. and 443000 a.u.
The luminescence signal of CCn1cnc2c(NCc3nc4cc(Cl)c(Cl)cc4[nH]3)nc(N3CCN(C(=O)[C@H](C)NC(C)=O)CC3)nc21 is reported as 421000 a.u. and 477000 a.u. and 423000 a.u.
CCn1cnc2c(NCc3nc4ccc(F)c(F)c4[nH]3)nc(N3CCn4ncnc4C3)nc21 has a luminescence signal of 537000 a.u. and 535000 a.u. and 526000 a.u.
For CCn1cnc2c(NCc3nc4cc(Cl)c(Cl)cc4[nH]3)nc(N3CCN(Cc4ccncc4)CC3)nc21, the luminescence signal was 450000 a.u. and 425000 a.u. and 468000 a.u.
For CCn1cnc2c(NCc3nc4cc(Cl)c(Cl)cc4[nH]3)nc(N3CCC(NC(C)=O)CC3)nc21, the luminescence signal was 523000 a.u. and 462000 a.u. and 447000 a.u.
With CC(=O)N1CCN(c2nc(NCc3nc4cc(Cl)c(Cl)cc4[nH]3)c3ncn(C)c3n2)CC1 the luminescence signal was 435000 a.u. and 483000 a.u. and 419000 a.u.
For CCn1cnc2c(NCc3nc4cc(Cl)c(Cl)cc4[nH]3)nc(N3CCN(C(=O)c4ccncc4)CC3)nc21, the luminescence signal was 491000 a.u. and 414000 a.u. and 477000 a.u.
The luminescence signal of CC(=O)N1CCN(c2nc(NCc3nc4cc(Cl)c(Cl)cc4[nH]3)c3ncn(-c4cnn(C)c4)c3n2)CC1 is reported as 553000 a.u. and 522000 a.u. and 489000 a.u.
With CCn1cnc2c(NCc3nc4cc(Cl)c(Cl)cc4[nH]3)nc(N3CCn4ncnc4C3)nc21 the luminescence signal was 529000 a.u. and 585000 a.u. and 496000 a.u.

Sample 2
Compound: CC[C@@]1(c2cccc(C(F)(F)F)c2)C2=C(Nc3n[nH]cc31)[C@H](F)C(C)(C)CC2=O (single isomer, unassigned)
Concentration: 1 µM
RET (Homo sapiens, UniProt P07949, V804M); kinase binding, KINOMEscan; baseline: DMSO control — remaining binding: 100%.
For Macrophage colony-stimulating factor 1 receptor, autoinhibited (CSF1R, Homo sapiens, UniProt P07333); kinase binding, KINOMEscan; baseline: DMSO control: remaining binding read 100%.
It gave 100% for remaining binding (KDR (Homo sapiens, UniProt P35968); kinase binding, KINOMEscan; baseline: DMSO control).
ACVRL1 (Homo sapiens, UniProt P37023); binding, competition with immobilised ligand — remaining binding: 99%.
For EGFR (Homo sapiens, UniProt P00533, L861Q); kinase binding, KINOMEscan; baseline: DMSO control: remaining binding read 100%.
It gave 99% for remaining binding (BLK (Homo sapiens, UniProt P51451); binding, competition with immobilised ligand).
For PIK3CB (Homo sapiens, UniProt P42338); kinase binding, KINOMEscan; baseline: DMSO control: remaining binding read 100%.
EGFR (Homo sapiens, UniProt P00533, A750P/del747-749); binding, competition with immobilised ligand — remaining binding: 65%.
For CRK2 (Plasmodium falciparum, UniProt P61075); kinase binding, KINOMEscan; baseline: DMSO control: remaining binding read 100%.
It gave 52% for remaining binding (STK11 (Homo sapiens, UniProt Q15831); binding, competition with immobilised ligand).
For CLK1 (Homo sapiens, UniProt P49759); kinase binding, KINOMEscan; baseline: DMSO control: remaining binding read 93%.
It gave 100% for remaining binding (KIT (Homo sapiens, UniProt P10721, D816V); binding, competition with immobilised ligand).
For CDC42BPB (Homo sapiens, UniProt Q9Y5S2); kinase binding, KINOMEscan; baseline: DMSO control: remaining binding read 100%.

Sample 3
SMILES: Cc1ncsc1-c1ccc(C(CO)NC(=O)C2CC(O)CN2C(=O)C(C(C)C)n2cc(-c3ccc(COc4c(-c5c(C)c(F)cc6[nH]ncc56)c(C5CC5)cc5c(N6CC7CC6CN7)nc(OC6CCOCC6)nc45)cc3)nn2)cc1 (stereo not shown)
The tumour volume was 567 mm3 and 418 mm3 and 573 mm3 and 441 mm3 and 432 mm3 (mouse, PK-59 xenograft; 3 mg/kg, day 7).
The tumour volume was 220 mm3 and 150 mm3 and 210 mm3 and 182 mm3 and 140 mm3 (mouse, PK-59 xenograft; 30 mg/kg, day 10).
mouse, PK-59 xenograft; 30 mg/kg, day 7 — tumour volume: 237 mm3 and 281 mm3 and 184 mm3 and 290 mm3 and 198 mm3.
mouse, lung LXFA sample A PDX; 10 mg/kg twice weekly, day 6 — tumour volume: 223 mm3 and 128 mm3 and 78.3 mm3 and 93.9 mm3 and 68.7 mm3 and 164 mm3 and 286 mm3 and 123 mm3.
The tumour volume was 241 mm3 and 199 mm3 and 162 mm3 and 130 mm3 and 185 mm3 (GP2d xenograft, mouse; 30 mg/kg once weekly, day 7).
The tumour volume was 188 mm3 and 212 mm3 and 167 mm3 and 222 mm3 and 252 mm3 (GP5d xenograft, mouse; 30 mg/kg once weekly, day 14).
The tumour volume was 405 mm3 and 441 mm3 and 367 mm3 and 283 mm3 and 366 mm3 (KP-4 xenograft, mouse; 30 mg/kg once weekly, day 14).

Sample 4
Structure (SMILES): COc1cc(C(=O)OCCCN2CCCN(CCCOC(=O)c3cc(OC)c(OC)c(OCc4ccc([N+](=O)[O-])cc4)c3)CC2)cc(OC)c1OC
Route: intrathecal
It gave 196 s and 268 s and 207 s and 203 s for licking duration (female mouse, formalin pain; 1 nmol, 0 to 10 min).
male mouse, formalin pain; 10 nmol, 25 to 30 min — licking duration: 60.8 s and 58 s and 65.3 s and 65 s.
female mouse, formalin pain; 100 nmol, 0 to 5 min — licking duration: 146 s and 184 s and 153 s.
For male mouse, formalin pain; 10 nmol, 5 to 10 min: licking duration read 37.9 s and 38.4 s and 21 s and 38.1 s.
The licking duration was 192 s and 148 s and 176 s and 144 s (male mouse, formalin pain; 100 nmol, 0 to 5 min).

For quick reference, copied from above (sample 2):
It gave 100% for remaining binding (KDR (Homo sapiens, UniProt P35968); kinase binding, KINOMEscan; baseline: DMSO control).
ACVRL1 (Homo sapiens, UniProt P37023); binding, competition with immobilised ligand — remaining binding: 99%.
